Experimental data pooled from the literature.
Each line is one published result; not all experiments were run side by side.
Target: Tyrosine-protein kinase Blk (BLK, Homo sapiens, UniProt P51451)
Chain of UniProt P51451 (whole entry, looked up): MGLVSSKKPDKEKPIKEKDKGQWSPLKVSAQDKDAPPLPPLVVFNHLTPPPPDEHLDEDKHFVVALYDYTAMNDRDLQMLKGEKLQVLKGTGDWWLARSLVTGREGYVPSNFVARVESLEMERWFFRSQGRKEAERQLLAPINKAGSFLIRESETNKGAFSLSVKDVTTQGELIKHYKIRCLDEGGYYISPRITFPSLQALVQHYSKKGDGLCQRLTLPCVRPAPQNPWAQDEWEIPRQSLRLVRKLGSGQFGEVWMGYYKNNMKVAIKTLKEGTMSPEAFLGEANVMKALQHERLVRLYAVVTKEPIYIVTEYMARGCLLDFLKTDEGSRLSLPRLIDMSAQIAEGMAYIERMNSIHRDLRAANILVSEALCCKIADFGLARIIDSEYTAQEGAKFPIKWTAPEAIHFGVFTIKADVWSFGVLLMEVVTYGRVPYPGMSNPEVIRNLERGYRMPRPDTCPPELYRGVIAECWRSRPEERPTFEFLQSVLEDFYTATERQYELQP

`C=CC(=O)Nc1cccc(-c2cnc3[nH]cc(C(=O)NC(C)(C)C)c3n2)c1` gave an inhibition of 29% (enzyme activity, inhibitor; 0.1 µM).
With `NC(=O)[C@@H](O)C[C@H]1CCc2sc3ncnc(O[C@H]4CC[C@H](N5CCOCC5)CC4)c3c21` the inhibition was 44% (enzyme activity, inhibitor; 10 µM).
With `Cc1ccc(-c2c(/C=C(\C#N)C(=O)NC(C)C)n(CCCO)c3ncnc(N)c23)cc1` the remaining binding was 64% (cell-free assay, competition with immobilised ligand; 1 µM).
For `CNC(=O)C1CCN(c2cc(C)c(F)cc2NC(=O)c2ccc(-c3cc(O)ccc3C)c(C)c2)CC1`, the remaining binding was 0.25% (binding, competition with immobilised ligand; 1 µM).
`Cc1cc(NC(=O)[C@H](O)c2cc(F)cc(F)c2)ccc1-c1cnc(N)c(C(=O)NC(C)C)c1` gave a remaining binding of 100% (binding, competition with immobilised ligand; 10 µM).
For `COc1ccc(NC(=O)Nc2ccc3c(c2)C(=O)N(C(C)CO)CC(C)C(CN(C)Cc2ccc4c(c2)OCO4)O3)cc1` (stereo not drawn), the remaining activity was 107% (kinase activity, KinaseProfiler; 0.03 µM, species human; baseline: control).
The remaining activity of `Nc1ncc(-c2cc(-c3cnn(CC(F)(F)F)c3)ncc2F)nc1C(=O)NC1CNCC(F)C1` (stereo not drawn) is reported as 85.3% (enzyme activity; 1 µM; baseline: DMSO control).
For `Cc1cnc2nc1Nc1cccc(c1)COC/C=C/COCc1cc(ccc1OCCN1CCOCC1)N2`, the remaining binding was 41% (binding; 0.1 µM).
For `CCn1cc(C(=O)O)c(=O)c2c(N)c(F)c(NC3CCCCC3)cc21`, the inhibition was 6.9% (kinase activity; 0.1 µM, added: ATP at Km).
`COc1c(OCCCN2CCOCC2)ccc2c1N=C(NC(=O)c1cnc(N)nc1)N1CCN=C21` gave a remaining activity of 115% (kinase activity, inhibitor; 1 µM; baseline: untreated control).
For `Cc1cccc(O[C@H]2CCC[C@@H](C(C)CNCc3ccncc3)C2)c1` (relative stereo), the inhibition was -22% (enzyme activity, inhibitor; 10 µM).
The remaining binding of `COc1cc(Nc2nccc(-c3cnn4nc(OC)ccc34)n2)cc(C(F)(F)F)c1` is reported as 100% (binding, competition with immobilised ligand; 1 µM).
With `CC(C)=CC1OC(C)(C)C2C=C3C(=O)C(Cl)=CC(O)C3C3C(O)C4OC4C(=O)C132` (stereo not drawn) the remaining binding was 93% (cell-free assay, competition with immobilised ligand; 10 µM).
For `CNC1C[S+]2CC[S+]3CC[S+](C1)[Ru-4]321([N]=C=S)[n]2c3ccc(OC)cc3c3c4c(c5cc(F)c[n+]1c5c32)C(=O)NC4=O` (stereo not drawn), the remaining binding was 90% (KinomeScan; 0.1 µM; baseline: untreated).
`CCN1CCN(Cc2ccc(C(=O)Nc3ccc(C)c(NCc4cnc5[nH]ccc5c4OC)c3)cc2C(F)(F)F)CC1` gave a remaining binding of 0% (binding, competition with immobilised ligand; 1 µM).

A few entries again:
For `CNC1C[S+]2CC[S+]3CC[S+](C1)[Ru-4]321([N]=C=S)[n]2c3ccc(OC)cc3c3c4c(c5cc(F)c[n+]1c5c32)C(=O)NC4=O` (stereo not drawn), the remaining binding was 90% (KinomeScan; 0.1 µM; baseline: untreated).
With `Cc1ccc(-c2c(/C=C(\C#N)C(=O)NC(C)C)n(CCCO)c3ncnc(N)c23)cc1` the remaining binding was 64% (cell-free assay, competition with immobilised ligand; 1 µM).
